Assay results from different studies.
Compare with care: the assays were run in different laboratories. Values joined by “and” are separate records of one study, mostly repeats; a detail may differ.
Cell line: MDA-MB-231

For CCCCCCCCCC(=O)Oc1c(C)c(OC)c2c(c1C)OC(=O)C(CCCCCCCC)C2(O)C=Cc1ccccc1 (centres unmarked), the IC50 was over 50 µM (cell growth or viability, SRB; 72 h).
The IC50 of O=C1CS/C(=N\N=C\c2cccc3cc4ccccc4nc23)N1c1ccccc1 is reported as over 50 µM (cell growth or viability, MTT; 48 h).
With COc1cccc(CNC[C@](O)(COCc2ccccc2)[C@@H]2CC[C@@H](C)C[C@H]2OCc2ccccc2)c1 the IC50 was 1.89 µM (cell growth or viability, MTT; 72 h).
With Cc1sc2c(c1C)C(c1ccc(Cl)cc1)=N[C@@H](CC(=O)NCCN(C)CCCCNC(=O)CCCCOc1cccc3c1C(=O)N([C@H]1CCC(=O)NC1=O)C3=O)c1nnc(C)n1-2 the IC50 was 0.81 µM (cell growth or viability, CCK-8; 72 h).
With C[C@@H]1CC[C@@H]([C@](O)(COCc2ccccc2)Cn2cnc3ccccc32)[C@H](OCc2ccccc2)C1 the IC50 was 5.02 µM (cell growth or viability, MTT; 72 h).
With CCCc1cc2cc(-n3nc(CO)c4c3CC(C)(C)CC4=O)cc(N3CCC(O)CC3)c2c(=O)[nH]1 the IC50 was over 50 µM (cell growth or viability, MTS).
CCOC(=O)/C=C1\S/C(=N\N=C\c2cccc3cc4ccccc4nc23)N(CC(C)C)C1=O has an IC50 of over 50 µM (cell growth or viability, MTT; 48 h).
With CC(C)(C)c1cnc(CSc2cnc(NC(=O)C3CCN(C(=O)CCCCCCN4Cc5cc6c(cc5C4)C(=O)N(C4CCC(=O)NC4=O)C6=O)CC3)s2)o1 (centres unmarked) the IC50 was 0.0668 µM (cell growth or viability, MTT).
For CCCc1cc2cc(-n3nc(C(C)C)c4c3CC(C)(C)CC4=O)cc(N3CCC(O)CC3)c2c(=O)[nH]1, the IC50 was 8.17 µM (cell growth or viability, MTS).
For CC[C@H](C)/C=C/C=C/C(O)=C/C(=O)C(F)(F)Cl, the IC50 was 296 µM (cell growth, CellTiter-Glo).
For Cc1ccccc1/C=C/C(=O)N[C@@H](CO)C(=O)N[C@H](C(=O)N[C@H](Cc1ccccc1)C(=O)O)[C@@H](C)O, the IC50 was over 20 µM.
For C=CCOc1c(C)c(OC)c(C(=O)/C=C/c2ccccc2)c(OCC=C)c1C, the IC50 was over 50 µM (cell growth or viability, SRB; 72 h).
Cc1cnc(Nc2ccc3c(c2)CCN(C(=O)/C=C/C(=O)c2ccc(Cl)cc2)C3)nc1-c1cnn(C(C)C)c1 gave an IC50 of 0.09 µM (cell growth or viability, MTT; 48 h).
With Nc1ncc(-c2cc(-c3cnn(CC(F)(F)F)c3)ncc2F)nc1C(=O)NC1CNCC(F)C1 (centres unmarked) the IC50 was 2.32 µM (cell growth or viability, ATP luminescence; 72 h).
For O=C1CS/C(=N\N=C\c2cccc3cc4ccccc4nc23)N1c1ccc(F)cc1, the IC50 was over 50 µM (cell growth or viability, MTT; 48 h).
O=C1C(Cl)=C(NCCN2CCOCC2)C(=O)c2ncccc21 gave an IC50 of 5.75 µM (cell growth or viability, MTT; 48 h).
CC[C@H](C)/C=C/C=C/C=C/C(O)=C/C(=O)C(F)(Cl)Cl gave an IC50 of 11.8 µM and 18.5 µM and 27.4 µM (cell growth, CellTiter-Glo).
The IC50 of CCCc1cc2cc(-n3nc(C)c4ncccc43)cc(N3CCC(O)CC3)c2c(=O)[nH]1 is reported as 16 µM (cell growth or viability, MTS).
With CN1CCN(CC(=O)N2CCN(CC(OCc3ccc4ccccc4c3)c3ccc(Cl)cc3Cl)CC2)CC1 (centres unmarked) the IC50 was 4.2 µM (cell growth or viability, MTT; 24 h).
The IC50 of O=S(=O)(c1ccc2c(c1)OCO2)n1cc(CCCCN2CCC(=C(c3ccc(F)c(F)c3)c3ccc(F)c(F)c3)CC2)nn1 is reported as 3.35 µM (cell growth or viability, ATP luminescence; 48 h).
C[C@@H]1CC[C@@H]([C@@](O)(CNCc2ccc(F)cc2)COCc2ccccc2)[C@H](OCc2ccccc2)C1 gave an IC50 of 3.78 µM (cell growth or viability, MTT; 72 h).
For CCCCN(CCCC)CC(=O)N1CCN(CC(OCc2ccc3ccccc3c2)c2ccc(Cl)cc2Cl)CC1 (centres unmarked), the IC50 was 32.9 µM (cell growth or viability, MTT; 24 h).
For COc1ccc(N2C(=O)CS/C2=N\N=C\c2cccc3cc4ccccc4nc23)cc1, the IC50 was over 50 µM (cell growth or viability, MTT; 48 h).
COC1CC(=O)c2c(O)cccc2C12Oc1cccc3cccc(c13)O2 (centres unmarked) gave an IC50 of over 25 µM (cell growth or viability, resazurin; 72 h).
For CCCc1cc2cc(-n3nc(CC(C)C)c4c3CC(C)(C)CC4=O)cc(N3CCC(O)CC3)c2c(=O)[nH]1, the IC50 was over 50 µM (cell growth or viability, MTS).
With CCOC(=O)/C=C1\S/C(=N\N=C\c2cccc3cc4ccccc4nc23)N(c2ccc(OC)cc2)C1=O the IC50 was over 50 µM (cell growth or viability, MTT; 48 h).
The IC50 of C[C@@H]1CC[C@@H]([C@](O)(CNCc2cccc(F)c2)COCc2ccccc2)[C@H](OCc2ccccc2)C1 is reported as 3.93 µM (cell growth or viability, MTT; 72 h).
The IC50 of Clc1ccc(C(Cn2ccnc2)OCc2ccc(Br)cc2)c(Cl)c1 (centres unmarked) is reported as 49.6 µM (cell growth or viability, MTT; 24 h).
For CC(C)c1ccc(N(C)c2ccc3c(c2)OCC[C@H]3CNc2cnccc2C(=O)O)cc1, the IC50 was 0.0035 µM (cell growth or viability, MTS; 7 days).
COc1c(C)c(OC(=O)c2ccc3ccccc3c2)c(C)c(O)c1C(=O)/C=C/c1ccccc1 has an IC50 of over 50 µM (cell growth or viability, SRB; 72 h).
For CNC(=S)NN=Cc1ccc([N+](=O)[O-])o1, the IC50 was 46.8 µM (cell growth or viability, resazurin).
The IC50 of O=C(/C=C/c1ccccc1)Nc1cc(-c2ccnc(N3CCC(CO)CC3)c2)ccn1 is reported as 0.0189 µM (cell growth or viability, MTT; 72 h).
The IC50 of CCCc1cc2cc(-n3nc(C(F)(F)F)c4c3CC(C)(C)CC4=O)cc(N3CCC(O)CC3)c2c(=O)[nH]1 is reported as 3.31 µM (cell growth or viability, MTS).
With C[C@@H]1CC[C@@H]([C@@](O)(CNCc2ccc(F)cc2)COCc2ccc(F)cc2)[C@H](OCc2ccc(F)cc2)C1 the IC50 was 1.91 µM (cell growth or viability, MTT; 72 h).
CC(=O)N[C@@H](CCCNC(=N)N)C(=O)N[C@@H](Cc1c[nH]c2ccccc12)C(=O)N[C@@H](CCCNC(=N)N)C(=O)N[C@@H](Cc1c[nH]c2ccccc12)C(=O)N[C@@H](CCCNC(=N)N)C(=O)N[C@@H](Cc1c[nH]c2ccccc12)C(N)=O gave an IC50 of over 100 µM (cell viability; 48 h, dark).
NC(=S)NN=Cc1ccc([N+](=O)[O-])o1 has an IC50 of 44 µM (cell growth or viability, resazurin).
The IC50 of CC(=O)[O][Pd][c]1ccccc1N1N=C(C)C(C)(C)C1=O.CC(=O)[O][Pd][c]1ccccc1N1N=C(C)C(C)(C)C1=O is reported as 87.5 µM (cell growth or viability, MTT).
With Clc1ccc(COC(Cn2cncn2)c2ccc(Cl)cc2Cl)cc1 (centres unmarked) the IC50 was 42.5 µM (cell growth or viability, MTT; 24 h).
Nc1ncnc2c1ncn2CCN1C(=O)/C(=N\N=C2/NC(=O)CS2)c2ccccc21 has an IC50 of 56.5 µg/mL (cell growth or viability, SRB; 72 h).
With Clc1ccc(C(Cn2cncn2)OCc2ccc3ccccc3c2)c(Cl)c1 (centres unmarked) the IC50 was 33 µM (cell growth or viability, MTT; 24 h).
For COc1ccc(COC[C@](O)(CNCc2ccc(F)cc2)[C@@H]2CC[C@@H](C)C[C@H]2OCc2ccc(OC)cc2)cc1, the IC50 was 3.18 µM (cell growth or viability, MTT; 72 h).
O=C(c1ccc(Cl)cc1Cl)N1CCN(CC(OCc2ccc3ccccc3c2)c2ccc(Cl)cc2Cl)CC1 (centres unmarked) gave an IC50 of 35.6 µM (cell growth or viability, MTT; 24 h).
O=C1CS/C(=N\N=C2/C(=O)N(CCn3ncc4c(=O)[nH]cnc43)c3ccc(Cl)cc32)N1 has an IC50 of 23.6 µg/mL (cell growth or viability, SRB; 72 h).
With O=C(c1ccc(Br)cc1)N1CCN(CC(OCc2ccc3ccccc3c2)c2ccc(Cl)cc2Cl)CC1 (centres unmarked) the IC50 was 45.7 µM (cell growth or viability, MTT; 24 h).
CC[C@H](C)/C=C/C=C/C=C/C(O)=C/C(=O)C(F)(F)F gave an IC50 of 30.7 µM and 22.7 µM (cell growth, CellTiter-Glo).
For Cc1ccc(C(=O)N2CCN(CC(OCc3ccc4ccccc4c3)c3ccc(Cl)cc3Cl)CC2)cc1 (centres unmarked), the IC50 was 39.2 µM (cell growth or viability, MTT; 24 h).
For COc1c(C)c(OS(=O)(=O)c2ccccc2)c(C)c(OS(=O)(=O)c2ccccc2)c1C(=O)/C=C/c1ccccc1, the IC50 was over 50 µM (cell growth or viability, SRB; 72 h).

For quick reference, copied from above:
For CC(C)c1ccc(N(C)c2ccc3c(c2)OCC[C@H]3CNc2cnccc2C(=O)O)cc1, the IC50 was 0.0035 µM (cell growth or viability, MTS; 7 days).
The IC50 of Clc1ccc(C(Cn2ccnc2)OCc2ccc(Br)cc2)c(Cl)c1 (centres unmarked) is reported as 49.6 µM (cell growth or viability, MTT; 24 h).
The IC50 of O=C1CS/C(=N\N=C\c2cccc3cc4ccccc4nc23)N1c1ccccc1 is reported as over 50 µM (cell growth or viability, MTT; 48 h).
With Clc1ccc(C(Cn2cncn2)OCc2ccc3ccccc3c2)c(Cl)c1 (centres unmarked) the IC50 was 33 µM (cell growth or viability, MTT; 24 h).
O=C(c1ccc(Cl)cc1Cl)N1CCN(CC(OCc2ccc3ccccc3c2)c2ccc(Cl)cc2Cl)CC1 (centres unmarked) gave an IC50 of 35.6 µM (cell growth or viability, MTT; 24 h).
With C[C@@H]1CC[C@@H]([C@](O)(COCc2ccccc2)Cn2cnc3ccccc32)[C@H](OCc2ccccc2)C1 the IC50 was 5.02 µM (cell growth or viability, MTT; 72 h).
